Assay results collected from several papers.
A part holds a random share of what one study measured. Substitutions count along the parent as printed.

Set 1 — target: CCND1, cyclin fold, Cln2 fusion (human); technique: yeast growth competition, sequencing; matrix: yeast; notes: weak parent motif; reference: not given; reading: higher = stronger binding
Parent: RB1 docking peptide (human); PKPLKKLRFDIEG; partner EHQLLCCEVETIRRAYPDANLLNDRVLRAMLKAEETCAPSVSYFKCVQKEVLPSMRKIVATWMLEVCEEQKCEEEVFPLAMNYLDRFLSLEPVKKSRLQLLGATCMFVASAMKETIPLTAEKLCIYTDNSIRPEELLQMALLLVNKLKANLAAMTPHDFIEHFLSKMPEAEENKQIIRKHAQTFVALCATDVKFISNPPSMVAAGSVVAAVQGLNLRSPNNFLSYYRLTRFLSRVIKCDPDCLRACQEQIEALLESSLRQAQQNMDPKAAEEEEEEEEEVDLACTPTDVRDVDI
Under “normalised enrichment score”, `K2I` is recorded as 0.635.
Under “normalised enrichment score”, `P3V` is recorded as -0.612.
`L7S`: “normalised enrichment score” -0.248.
`E12K` — result for “normalised enrichment score”: -0.687.
Under “normalised enrichment score”, `K2A` is recorded as 0.169.
`L4F` — result for “normalised enrichment score”: 0.583.
`P1F` — result for “normalised enrichment score”: -0.0412.
`K5N`: “normalised enrichment score” 0.187.
`D10Y`: “normalised enrichment score” 0.499.
`K2D`: “normalised enrichment score” -0.263.
For `P3Y`, “normalised enrichment score” read -0.0227.
Under “normalised enrichment score”, `D10S` is recorded as -0.672.
`P1E` — result for “normalised enrichment score”: 0.0645.
For `I11H`, “normalised enrichment score” read 0.0217.
For `L7N`, “normalised enrichment score” read -0.208.

Set 2 — technique: Sort-seq; item: YFP reporter; matrix: E. coli; notes: PhoQ-PhoP variant library; added: 10 µM Mg2+; reference: high Mg2+ state; reading: higher = stronger signaling
Substance: PhoQ, residues 284 288 289 292 302 303 AAQSYM
PhoP, residues 12 14 15 18 19 ICWRQ (Escherichia coli, UniProt P23836) — fold induction: 1.34.
For PhoP, residues 12 14 15 18 19 VHTVL (Escherichia coli, UniProt P23836): fold induction read 17.
PhoP, residues 12 14 15 18 19 TQCLL (Escherichia coli, UniProt P23836) — fold induction: 5.06.

Set 3 — technique: protein-binding microarray; form: double-stranded DNA, one strand shown; matrix: in vitro; tested at: 2540 nM top; notes: 60-bp whole probe; added: salmon DNA 0.4 mg/ml; reference: random background probes; reading: higher = stronger binding; shared flanks, not repeated: GCCTAGCAC … GTCTTGATTCGCTTGACGCTGCTG
Target: Interferon regulatory factor 3, full length, phosphomimetic (IRF3, Homo sapiens, UniProt Q14653, residues 1-427, S386D/S396D/S398D/S402D/T404D/S405D)
Sequence of UniProt Q14653 (whole entry, unmodified, looked up): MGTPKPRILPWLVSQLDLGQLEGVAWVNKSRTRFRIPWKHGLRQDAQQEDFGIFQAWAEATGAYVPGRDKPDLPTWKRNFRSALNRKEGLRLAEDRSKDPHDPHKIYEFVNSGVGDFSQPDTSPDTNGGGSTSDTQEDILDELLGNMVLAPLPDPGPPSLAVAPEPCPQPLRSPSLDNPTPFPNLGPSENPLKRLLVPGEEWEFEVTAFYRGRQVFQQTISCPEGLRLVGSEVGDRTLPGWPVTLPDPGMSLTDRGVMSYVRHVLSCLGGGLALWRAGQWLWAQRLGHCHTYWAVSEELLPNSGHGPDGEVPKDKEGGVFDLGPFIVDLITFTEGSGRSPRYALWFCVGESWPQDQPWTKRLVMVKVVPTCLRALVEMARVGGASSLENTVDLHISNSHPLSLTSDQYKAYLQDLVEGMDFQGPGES
For `GAGGGTCTCCTTCTCCTGACGTGCTAG`, “fitted relative affinity” read 2.74 z-score.
`TTAGGAATGGGGTATCGGTTAGTGCTA`: “fitted relative affinity” 0.153 z-score.
Under “fitted relative affinity”, `TTAGATTTAAGTTCCGATTAGTGCTAG` is recorded as 1.82 z-score.
`TTAGGTATCGGACTGGGTTCGTGCTAG` — result for “fitted relative affinity”: 0.928 z-score.
For `TCAACTCTCTAATTTTGAGAGTGCTAG`, “fitted relative affinity” read 0.377 z-score.
`CTAGGTTTCCTACTGCTTTAGTGCTAG` — result for “fitted relative affinity”: 4.77 z-score.
For `GACGAGTTCAGTCTCGAGACGTGCTAG`, “fitted relative affinity” read 0.25 z-score.
`TCAGTTTTCCTTCATGTACTGTGCTAG` — result for “fitted relative affinity”: 4.07 z-score.
`GACGGTATCGGTCTCGGGATGTGCTAG` — result for “fitted relative affinity”: 4.49 z-score.
`GTCGGTATCCTTCTCCTGACGTGCTAG`: “fitted relative affinity” 8.28 z-score.
For `GAGCTCCTCCTTCTCTAACCGTGCTAG`, “fitted relative affinity” read 1.23 z-score.
For `GACGATTTCAGTTTCAAGACGTGCTAG`, “fitted relative affinity” read 3.55 z-score.
`GACGATATCCTACTGCTGACGTGCTAG`: “fitted relative affinity” 0.767 z-score.
Under “fitted relative affinity”, `GACGCTATCGGACTGGGGACGTGCTAG` is recorded as -0.234 z-score.
Under “fitted relative affinity”, `GACGGAATCGACTATCGGGACGTGCTA` is recorded as 0.197 z-score.
Under “fitted relative affinity”, `TGTGGACCTTGGGAGATTTCGTGCTAG` is recorded as -0.895 z-score.
For `TTCGAACTGAGACTGGATTAGTGCTAG`, “fitted relative affinity” read -0.284 z-score.

Set 4 — technique: RNA Bind-n-Seq; form: RNA; matrix: in vitro; tested at: 365 nM; reference: no-protein control; reading: higher = stronger binding
Target: RNA binding protein fox-1 homolog 2, RRM domain, GST-SBP tag (RBFOX2, Homo sapiens, UniProt O43251-10, residues 100-194)
Notes: natural RNA segment, single round, ends assumed
Construct (chain): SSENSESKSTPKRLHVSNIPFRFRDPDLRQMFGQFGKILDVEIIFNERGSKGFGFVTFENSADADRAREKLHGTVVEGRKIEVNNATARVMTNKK
For `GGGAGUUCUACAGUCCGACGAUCGCACAAUUGAUAGUGUACCAAUAGAGGGAGACUGGGCGAUCUGGAACAGCACGUGGUGGGGUCCUGCUUGUGUGCUCUGCGUUCCUCUGUGGCGUGGCCAGGCCGGGGCAUGGAAUUCUCGGGUGCCAA`, “RBNS enrichment (R)” read 18.3.
`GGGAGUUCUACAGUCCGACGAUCAUUAUUUCCACGUAAGGGAAAUAAGGUAGUACUUUUCUUUUUAUAUUUCUAUGCUUAAAAUUCUCUUUCCUAGUCAAAAAUUGCCCAAAUCUGUGUUUGCUUUCUGCUUGUGGAAUUCUCGGGUGCCAA`: “RBNS enrichment (R)” 3.06.
Under “RBNS enrichment (R)”, `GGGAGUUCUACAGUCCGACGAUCGUGAGGUAUUAAAUAUAUCUGAUACCUGAUGGGGCUGUGCCCCAUCCAGCCCUCAAAGUAGUCUCUGUAAAUCGCUGGGAUAGUAUUCAUAUUGUGUCAUCUCAGUGUUAUGGAAUUCUCGGGUGCCAA` is recorded as 0.326.
`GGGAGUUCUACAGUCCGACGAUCCAGCCUCGUCUGGAAAAAGGACCAGGGGUCCCGGAGGAACCCAUUUGUGCUCUGCUUGGACAGCAGGCCUGGCACUGGGAGGUGGGGGUGAGCCCCUCACAGCCUUGCCCUGGAAUUCUCGGGUGCCAA` — result for “RBNS enrichment (R)”: 0.362.
`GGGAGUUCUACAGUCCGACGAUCCAGUCUUAGCUGACUUUUUUUUACUCUGAACUCUUAUUUGAAUUGUUUUUUGUGCAUAUAUUUCUGCUACCACAGAGAUUGUACUAUACAAAUAAAAAAAUAAAAACCCAUGGAAUUCUCGGGUGCCAA` — result for “RBNS enrichment (R)”: 0.779.
Under “RBNS enrichment (R)”, `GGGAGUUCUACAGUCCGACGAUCUUUUAGUCCAUUUUGUUUUCAAUACGAUUUAAUAUCGAUCAGAGUAAUUCUUUUGUACAUUGAAAUGAGGGGCUUGGUUUAAAAAAAGACCUUUCCCUCUCCCUGCCCCUUGGAAUUCUCGGGUGCCAA` is recorded as 0.364.
Under “RBNS enrichment (R)”, `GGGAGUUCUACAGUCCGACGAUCAGGAGAAGUAAAGGCCACGGAAGGUAUGGUAGUUUCUGGAGUCCUAUCUGAGAACUCACAGAUUGUCUUUGCCUCUCUAGGCAGAAACAGAGCUACCCACUGCAGCGGCCUGGAAUUCUCGGGUGCCAA` is recorded as 0.393.
For `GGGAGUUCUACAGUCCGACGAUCUCUGUGGGAUUUUUAGACAUUUUUCGACAUCAGGGUAUUUGUUCCACCUUGGCCAGGCCUCCUCGGAGAAGCUUGUCCCCCGUGUGGGAGGGACGGAGCCGGACUGGACAUGGAAUUCUCGGGUGCCAA`, “RBNS enrichment (R)” read 0.383.
`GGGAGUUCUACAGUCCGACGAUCUCAGGAAGCCUAAUCCAGGUGGUAACCACAGAAGGAAGGACGGAACUCACCCCAGCAUAUUUUUAGGCCUCAUCUCAGUGCCUAUGAGGGGCCUGCCAGAAAAGUCACUAUGGAAUUCUCGGGUGCCAA`: “RBNS enrichment (R)” 0.948.
`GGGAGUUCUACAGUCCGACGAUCAUUUUUUGAGUUCAAAUGCUACUGUCCAAGCGAGAAGUCCCUCAUCCUGAAGUAGACUAAAGCCCGGCUGAAAAUUCCGAGGAAAACAAAACAAACGAAUGAAUGAACAGUGGAAUUCUCGGGUGCCAA`: “RBNS enrichment (R)” 0.923.
`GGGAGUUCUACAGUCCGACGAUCCCCUGGGGCCUCUAGUGUAUUGUAUUAUAUUUCUGUGGAAAGUCAUGUUUAGUCAAAUUGGAAUCCACUCACCUGUUCCCUUUGUUUUCCCUAUCCCUUCUCCUGAGCACUGGAAUUCUCGGGUGCCAA`: “RBNS enrichment (R)” 0.778.
`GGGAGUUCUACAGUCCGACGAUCCCUUUGGGAGCAUGUGUGGCUAGGGUGUGGCAGCCUUUGUCUGACAUGCAGUAUAGUAGGUCCCUGACCUUUACUUGCCUGAAAUCAGCAGUUAUCAAUAAUUCCCACCCUGGAAUUCUCGGGUGCCAA`: “RBNS enrichment (R)” 0.311.

Excerpt of the above (set 3):
`TCAGTTTTCCTTCATGTACTGTGCTAG` — result for “fitted relative affinity”: 4.07 z-score.
`GACGGTATCGGTCTCGGGATGTGCTAG` — result for “fitted relative affinity”: 4.49 z-score.
`GTCGGTATCCTTCTCCTGACGTGCTAG`: “fitted relative affinity” 8.28 z-score.
For `GAGCTCCTCCTTCTCTAACCGTGCTAG`, “fitted relative affinity” read 1.23 z-score.
For `GACGATTTCAGTTTCAAGACGTGCTAG`, “fitted relative affinity” read 3.55 z-score.
